{"data": "Measured values from different studies", "note": "Numbered parts are unrelated; each lists some results of a single study. Values joined by “and” are separate records of one study, mostly repeats; a detail may differ."}
{"data": "Set 1", "cell line": "mouse MPNST tumor cells", "method": "high-content nuclear imaging", "refers to": "cell number", "concentration": "10 µM", "time": "12 h", "notes": "mean of 2 replicates", "relative to": "plate mean", "reading": "higher = more cells"}
{"SMILES": "COc1ccc(CN2C(=O)C(=O)c3cc(OC(F)(F)F)ccc32)cc1", "nuclei count [z-score]": -4.77}
{"SMILES": "C[C@@H](Oc1nnc(-c2ccncc2)n1C)c1cc(-c2cccc(Cl)c2)on1", "nuclei count [z-score]": 1.79}
{"SMILES": "CCn1c2ccccc2c2cc(CNC)ccc21", "nuclei count [z-score]": -0.954}
{"SMILES": "CN1CCN(CCCN2c3ccccc3Sc3ccc(Cl)cc32)CC1", "nuclei count [z-score]": -4.87}
{"SMILES": "CC(C)n1c(/C=C/C(O)CC(O)CC(=O)O)c(-c2ccc(F)cc2)c2ccccc21 (stereo not drawn)", "nuclei count [z-score]": -5.39}
{"SMILES": "COC(=O)C1=C(C)NC(C)=C(C(=O)OC2CCCN(Cc3ccccc3)C2)C1c1cccc([N+](=O)[O-])c1 (stereo not drawn)", "nuclei count [z-score]": 0.751}
{"SMILES": "CO[C@H]1C[C@@H]2CC[C@@H](C)[C@@](O)(O2)C(=O)C(=O)N2CCCC[C@H]2C(=O)O[C@H]([C@H](C)C[C@@H]2CC[C@@H](OCCO)[C@H](OC)C2)CC(=O)[C@H](C)/C=C(\\C)[C@@H](O)[C@@H](OC)C(=O)[C@H](C)C[C@H](C)/C=C/C=C/C=C/1C", "nuclei count [z-score]": 3.73}
{"SMILES": "C=CCOc1ccc(C2CC(=O)Nc3nc(N)[nH]c(=O)c32)cc1OC (stereo not drawn)", "nuclei count [z-score]": -0.0465}
{"SMILES": "CCCC(C(=O)OCCN(CC)CC)(c1ccccc1)c1ccccc1", "nuclei count [z-score]": 3.59}
{"SMILES": "CSc1nc(-c2ccnc(NC(C)c3ccccc3)c2)c(-c2ccc(F)cc2)[nH]1 (stereo not drawn)", "nuclei count [z-score]": 1.3}
{"SMILES": "C/N=C(/NC#N)NCCSCc1csc(NC(=N)N)n1", "nuclei count [z-score]": 1.57}
{"data": "Set 2", "Compound": "CC(=O)N[C@@H](Cc1c[nH]c2ccccc12)C(=O)N[C@@H](CCC(=O)C=[N+]=[N-])C(=O)OC(C)C"}
{"species": "mouse, EL4 tumour", "route": "subcutaneous", "dose": "0.3 mg/kg", "time": "day 10", "tumour volume": "475 mm3 and 432 mm3 and 222 mm3 and 381 mm3 and 810 mm3 and 776 mm3"}
{"species": "mice, MC-38 tumour rechallenge", "dose": "1 mg/kg", "time": "day 14 after injection", "tumour volume": "0 mm3"}
{"species": "mice, MC-38 tumour rechallenge", "dose": "0.26 mg/kg", "time": "day 46 after injection", "tumour volume": "0 mm3"}
{"species": "mice, MC-38 tumour rechallenge", "dose": "1 mg/kg", "time": "day 35 after injection", "tumour volume": "0 mm3"}
{"species": "C57BL/6 CES1-/- mouse, EL4 tumour", "route": "intravenous", "dose": "1 mg/kg DON equivalent", "time": "treatment day 11", "notes": "5 days per week", "tumour volume": "185 mm3 and 115 mm3 and 150 mm3 and 376 mm3 and 218 mm3 and 214 mm3 and 300 mm3 and 351 mm3"}
{"species": "mouse", "medium": "MC-38 rechallenge tumour", "dose": "0.26 mg/kg", "time": "day 0 after injection", "tumour volume": "0 mm3"}
{"species": "mice, MC-38 tumour rechallenge", "dose": "1 mg/kg", "time": "day 43 after injection", "tumour volume": "0 mm3"}
{"species": "C57BL/6 CES1-/- mouse, EL4 tumour", "route": "intravenous", "dose": "1 mg/kg DON equivalent", "time": "treatment day 10", "notes": "5 days per week", "tumour volume": "176 mm3 and 116 mm3 and 184 mm3 and 424 mm3 and 609 mm3 and 161 mm3 and 502 mm3 and 399 mm3"}
{"data": "Set 3", "cell line": "normal adjacent epithelium patient-derived organoids", "method": "CellTiter-Glo", "concentration": "1 µM", "notes": "mean of five organoid lines", "relative to": "DMSO"}
{"Structure (SMILES)": "Cc1c(NC(=O)c2cc(C(N)=O)nc3cc(F)ccc23)c(C(F)(F)F)nn1Cc1ccc(C#N)cc1", "viability [%]": 23.1}
{"Structure (SMILES)": "COc1cc(-c2cn(C3CCc4ccccc4N(CC(F)(F)F)C3=O)nn2)ccc1-n1ccc(C)n1 (stereo not drawn)", "viability [%]": 93.4}
{"Structure (SMILES)": "CO[C@H]1CC[C@H](CNc2ccc(S(=O)(=O)NC(=O)c3ccc(N4CCN(CC5=C(c6ccc(Cl)cc6)CC(C)(C)CC5)CC4)cc3Oc3cnc4[nH]ccc4c3)cc2[N+](=O)[O-])CC1", "viability [%]": 94.2}
{"Structure (SMILES)": "Cc1cn(-c2cc(NC(=O)c3ccc4c(c3)CN(c3cncnc3)C[C@@H]4C)cc(C(F)(F)F)c2)cn1", "viability [%]": 99.9}
{"Structure (SMILES)": "Nc1nc(NCc2ccccc2)nc(-c2cccc(CO)c2)n1", "viability [%]": 119}
{"Structure (SMILES)": "CCCCN(Cc1ccccc1)C(=O)c1ccc(S(=O)(=O)Nc2ccccc2)cc1", "viability [%]": 121}
{"Structure (SMILES)": "C[C@H](c1ccc(F)cc1)N(Cc1cccc(C(=O)O)c1)C(=O)c1cnc2ccccc2c1", "viability [%]": 104}
{"Structure (SMILES)": "C[C@H](c1ccnc(Nc2nc3ccc(-c4cc(N(C)C)ncn4)cc3[nH]2)c1)N1CCN(C(=O)CC(F)(F)F)CC1", "viability [%]": 96.1}
{"Structure (SMILES)": "CN1CCN(Cc2ccc(Nc3ncc(Cl)c(Nc4ccccc4S(=O)(=O)N(C)C)n3)cc2)CC1", "viability [%]": 2.6}
{"Structure (SMILES)": "Cc1noc([C@H]2C[C@@H](c3ccc(C(F)(F)F)cc3)CN(C(=O)N3CCS(=O)(=O)C3)C2)n1", "viability [%]": 102}
{"Structure (SMILES)": "CCC(=O)N[C@H]1CC[C@@H](C(=O)N(C)c2ccc(-c3nc4ccccc4o3)cc2)C1", "viability [%]": 55.8}
{"Structure (SMILES)": "O=C(NNS(=O)(=O)c1ccccc1)c1cc(-c2ccnnc2)ccc1F", "viability [%]": 119}
{"Structure (SMILES)": "C[C@H](c1ccc(F)cc1)N(Cc1ccc(Cl)c(C(=O)O)c1)C(=O)c1cnc2ccccc2c1", "viability [%]": 102}
{"Structure (SMILES)": "CN(C)[C@@H]1CCN(c2cc(-c3ccccc3)nc3ccnn23)C1", "viability [%]": 113}
{"Structure (SMILES)": "Cn1cncc1[C@@](O)(COc1ccc(C#N)cc1-c1ccc(OC(F)(F)F)cc1)c1ccc(C#N)cc1", "viability [%]": 89.2}
{"Structure (SMILES)": "C[C@@]1(Cc2ccc(C#N)cc2)C(=O)N(c2cc(Cl)cc(Cl)c2)c2ncc(C(=O)NC3(c4nc(C5CCC5)no4)CC3)n21", "viability [%]": 101}
{"Structure (SMILES)": "CNC(=O)c1ccccc1Nc1cc(Nc2ccc(N3CCOCC3)cc2OC)ncc1C(F)(F)F", "viability [%]": 27.4}
{"Structure (SMILES)": "C[C@@H](c1cccc(C#N)c1)n1cc(Cl)cc(C(N)=O)c1=N", "viability [%]": 110}
{"Structure (SMILES)": "Cn1cnc2c(F)c(Nc3ccc(Br)cc3Cl)c(C(=O)NOCCO)cc21", "viability [%]": 72.1}
{"Structure (SMILES)": "Cn1nc(C(F)(F)F)cc1-c1cnc(N2CCc3cc(S(=O)(=O)Nc4c(F)cc(Cl)cc4F)cc(N4CCCC4=O)c32)nc1", "viability [%]": 108}
{"Structure (SMILES)": "CC1=C(C#N)C(c2ccc3c(c2)c(NC(=O)c2ccccc2C)nn3C)C(C#N)=C(C)N1", "viability [%]": 97}
{"Structure (SMILES)": "O=C1CCc2cc(Nc3cc(OC4CCOCC4)c([N+](=O)[O-])cc3Cl)ccc2N1", "viability [%]": 111}
{"Structure (SMILES)": "CC(=O)N1CCC(c2ccc(C(=O)NC3=NCCN3)cc2C(F)(F)F)CC1", "viability [%]": 103}
{"Structure (SMILES)": "NS(=O)(=O)c1cc(NC(=O)Cc2ccccc2)ccc1Oc1cccc(Cl)c1", "viability [%]": 110}
{"Structure (SMILES)": "O=C1c2ccc(Nc3ccc(F)cc3F)cc2CCc2ccc(OC[C@H](O)CO)cc21", "viability [%]": 125}
{"data": "Set 4", "organism": "Sarcocystis neurona", "effect on": "parasite growth", "concentration": "10 µM", "time": "96 h", "notes": "first screen"}
{"SMILES": "C[C@]12C[C@H](O)[C@H]3[C@@H](CCC4=CC(=O)CC[C@@]43C)[C@@H]1CC[C@@H]2C(=O)CO", "inhibition [%]": -2}
{"SMILES": "COc1ccc(C2CNC(=O)C2)cc1OC1CCCC1 (stereo not drawn)", "inhibition [%]": 1.3}
{"SMILES": "NCC(=O)CCC(=O)O", "inhibition [%]": -17}
{"SMILES": "CC(=O)Nc1ccc(CC(=O)O)cc1", "inhibition [%]": -4.6}
{"SMILES": "CC(=O)S[C@@H]1CC2=CC(=O)CC[C@]2(C)[C@H]2CC[C@@]3(C)[C@@H](CC[C@@]34CCC(=O)O4)[C@H]12", "inhibition [%]": 6.1}
{"SMILES": "CCCNC(=O)NS(=O)(=O)c1ccc(Cl)cc1", "inhibition [%]": -7}
{"SMILES": "CN(C)CCOC(c1ccc(Cl)cc1)c1ccccn1 (stereo not drawn)", "inhibition [%]": 3.5}
{"SMILES": "COc1ccc2c(c1)c(CC(=O)O)c(C)n2C(=O)c1ccc(Cl)cc1", "inhibition [%]": -18.9}
{"SMILES": "O=C(CCNNC(=O)c1ccncc1)NCc1ccccc1", "inhibition [%]": -5.1}
{"SMILES": "CCCC1O[C@@H]2C[C@H]3[C@@H]4CCC5=CC(=O)C=C[C@]5(C)[C@H]4[C@@H](O)C[C@]3(C)[C@]2(C(=O)CO)O1 (stereo partly drawn)", "inhibition [%]": -26}
{"note": "A few entries again (set 2):"}
{"species": "mice, MC-38 tumour rechallenge", "dose": "1 mg/kg", "time": "day 14 after injection", "tumour volume": "0 mm3"}
{"species": "mouse", "medium": "MC-38 rechallenge tumour", "dose": "0.26 mg/kg", "time": "day 0 after injection", "tumour volume": "0 mm3"}
{"species": "C57BL/6 CES1-/- mouse, EL4 tumour", "route": "intravenous", "dose": "1 mg/kg DON equivalent", "time": "treatment day 11", "notes": "5 days per week", "tumour volume": "185 mm3 and 115 mm3 and 150 mm3 and 376 mm3 and 218 mm3 and 214 mm3 and 300 mm3 and 351 mm3"}
{"species": "mice, MC-38 tumour rechallenge", "dose": "0.26 mg/kg", "time": "day 46 after injection", "tumour volume": "0 mm3"}
{"species": "C57BL/6 CES1-/- mouse, EL4 tumour", "route": "intravenous", "dose": "1 mg/kg DON equivalent", "time": "treatment day 10", "notes": "5 days per week", "tumour volume": "176 mm3 and 116 mm3 and 184 mm3 and 424 mm3 and 609 mm3 and 161 mm3 and 502 mm3 and 399 mm3"}
{"species": "mice, MC-38 tumour rechallenge", "dose": "1 mg/kg", "time": "day 43 after injection", "tumour volume": "0 mm3"}
{"species": "mouse, EL4 tumour", "route": "subcutaneous", "dose": "0.3 mg/kg", "time": "day 10", "tumour volume": "475 mm3 and 432 mm3 and 222 mm3 and 381 mm3 and 810 mm3 and 776 mm3"}
